Measured values from different studies.
Each line is one published result; not all experiments were run side by side. “And” joins repeats or separate records; there may be more than shown. ± gives the spread as reported.
Genome polyprotein NS2B-NS3 protease: Genome polyprotein, NS2B-NS3 protease (dengue virus type 2, UniProt P29990)

Cc1ncsc1-c1ccc(C(C)NC(=O)C2CC(O)CN2C(=O)C(NC(=O)CCCCCCCCCCN2CCCC(Nc3ncc(Cl)c(Nc4ccccc4S(=O)(=O)C(C)C)n3)C2)C(C)(C)C)cc1 (stereo not drawn) — log2 fold change (22Rv1; RNA-seq, measured: PMEPA1 mRNA; concentration not given; baseline: DMSO): -1.15
COc1cc(Oc2c(O)c(Br)c(C)c(Br)c2OC)c(C(=O)O)c(C)c1O — viability (T47D; MTT; 10 or 50 µM, 48 h): 110 ± 4.1%
O=C(NC(c1ccccn1)c1ccccn1)c1cc(-c2ccccc2)n(-c2ccccc2)n1 — EC50 (Genome polyprotein NS2B-NS3 protease; reporter gene; HeLa): 11 µM
Cc1cc(Cl)cc(-c2ccnc3cc(CN4C(=O)C5C(C4=O)C5(C)C)sc23)c1C[C@@H]1CNCCO1 (stereo partly drawn) — viability (CHP-212; SRB; 0.1562 µM, single replicate): 79.2% and 103% and 96.5%
COC1CN([C@H]2CC[C@H]([C@@]3(C)Oc4c(Cl)cc(C(=O)NCc5c(SC)cc(C)[nH]c5=O)c(C)c4O3)CC2)C1 — log2 fold change (RNA-seq, measured: FZD3; human, whole blood; dose not given, 24 h; baseline: pretreatment baseline): 1.31
COc1cc(N2CCN(C(=O)CN)CC2)ccc1Nc1ncc(Cl)c(Nc2ccccc2P(C)(C)=O)n1 — viability (NCI-H3122; cell growth or viability, CCK-8; 2.5 nM, 48 h): 99%
Cc1ccc(-n2cc(CSc3nc4ccccc4n3Cc3cn(-c4ccc(C)cc4)nn3)nn2)cc1 — viability (HEK293; MTT; 15.6 ppm): 77%
Cc1ccc(C(NC(=O)c2cc(-c3ccccc3)n(-c3ccccc3)n2)c2ccncc2)cc1 (stereo not drawn) — EC50 (Genome polyprotein NS2B-NS3 protease; reporter gene; HeLa): 6 µM
[BH3-][P+]1(c2ccccc2)CCCCC1 — viability (SW-620; trypan blue; IC50, 72 h): 93.7%
CN1CCCNC(=O)c2cccc(c2)C(=O)NCCCN(C)CCCNc2cccc3c2C(=O)c2cccc(c2C3=O)NCCC1 — viability (HSC-2; cell growth or viability, CCK-8; 1 nM, 48 h): 103%
O=C(O)c1c(O)cc(O[C@@H]2O[C@H](CO)[C@@H](O)[C@H](O)[C@H]2O)cc1/C=C/c1ccccc1 — viability (HT-22; cell growth or viability, crystal violet; 50 µM, 48 h): > 50%
COc1cc(N2CCN(C(=O)C3CCCN3)CC2)ccc1Nc1ncc(Cl)c(Nc2ccccc2P(C)(C)=O)n1 (stereo not drawn) — viability (Ba/F3 EML4-ALK; cell growth or viability, CCK-8; 1 µM, 1 h): 96% and 94% and 98%
CC1(C)C(=CC=C2CCCC(C=CC3=[N+](CCC[N+](C)(C)C)c4ccc(S(=O)(=O)O)cc4C3(C)C)=C2SCCOCCOCCC(=O)O)N(CCC[N+](C)(C)C)c2ccc(S(=O)(=O)O)cc21 — viability (H-1793; CCK-8; 25 µM): ~100%
COc1ccc(Cn2cc(CO[C@@H]3O[C@H]4[C@H](OC[C@H]4O)[C@H]3N=[N+]=[N-])nn2)cc1 — viability (HCT-116; cytotoxicity, CellTiter-Glo; up to 30 µM, 72 h): not toxic
COc1cc(Oc2c(O)cc(C)c(Br)c2OC)c(C(=O)O)c(C)c1O — viability (T47D; MTT; 10 or 50 µM, 48 h): 112 ± 4.7%
